# Measured values gathered from unrelated publications.
# Numbers after ± are the reported error.
# Chain of UniProt Q9Y6L6 (whole entry, looked up): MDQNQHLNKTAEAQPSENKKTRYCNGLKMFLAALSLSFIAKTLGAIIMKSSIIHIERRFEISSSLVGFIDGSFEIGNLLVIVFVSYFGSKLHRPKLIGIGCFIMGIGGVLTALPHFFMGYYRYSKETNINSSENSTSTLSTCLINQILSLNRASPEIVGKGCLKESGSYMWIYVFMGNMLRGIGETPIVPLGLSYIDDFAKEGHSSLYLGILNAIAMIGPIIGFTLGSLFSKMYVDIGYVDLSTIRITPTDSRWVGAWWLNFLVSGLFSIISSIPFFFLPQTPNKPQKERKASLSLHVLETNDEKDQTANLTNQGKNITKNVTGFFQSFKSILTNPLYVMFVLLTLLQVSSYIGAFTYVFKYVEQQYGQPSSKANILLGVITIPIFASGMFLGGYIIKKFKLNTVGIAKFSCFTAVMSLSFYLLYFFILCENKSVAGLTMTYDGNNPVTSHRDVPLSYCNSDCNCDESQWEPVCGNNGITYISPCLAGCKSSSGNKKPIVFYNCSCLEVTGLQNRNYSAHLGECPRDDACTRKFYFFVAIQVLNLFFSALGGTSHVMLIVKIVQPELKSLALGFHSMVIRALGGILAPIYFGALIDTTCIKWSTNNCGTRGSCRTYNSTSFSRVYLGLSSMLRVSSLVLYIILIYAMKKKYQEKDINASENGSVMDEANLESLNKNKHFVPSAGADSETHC
Substance,tested on,assay,test system,setting,how to read,measurement,result
Nc1nc(NCC2CCC(CNS(=O)(=O)c3cccc4ccccc34)CC2)nc2ccccc12 (stereo not drawn),Leishmania donovani,,intracellular amastigote,,,EC50,26 ± 8.1 µM
CCOC(=O)c1ccc(O)cc1,,mitochondrial swelling,BALB/cByJ female mouse liver mitochondria,"30 min, added: succinate + rotenone",relative to: CaCl2 maximal swelling,EC20,> 400 µM
C=CC(=O)N1CCC([C@@H]2CCNc3c(C(N)=O)c(-c4ccc(Oc5ccccc5)cc4)nn32)CC1,"SLCO1B1 (Homo sapiens, UniProt Q9Y6L6)","transport, refers to: estradiol-17β-glucuronide uptake",HEK293 transfected,5 µM,relative to: vehicle,remaining activity,85.7 ± 6.4%
OC[C@H]1O[C@@](CO)(O[C@H]2O[C@H](CO)[C@@H](O)[C@H](O)[C@H]2O)[C@@H](O)[C@@H]1O,,"cytochrome c release, ELISA",BALB/cByJ female mouse liver mitochondria,30 min,relative to: alamethicin maximal release,EC20,> 800 µM
CN(C)Cc1cc(OCCC[18F])ccc1Sc1ccccc1N,SERT,,"male Sprague Dawley rat, control, hippocampus","intravenous, 60 min",,tissue uptake,0.45 ± 0.1 %ID/g
CCOC(=O)[N-]c1cn(N2CCOCC2)n[o+]1,,"cytochrome c release, ELISA",BALB/cByJ female mouse liver mitochondria,30 min,relative to: alamethicin maximal release,EC20,> 400 µM
NC(=O)[C@H](CCCN=C(N)CCl)NC(=O)c1ccccc1,U-87 MG,caspase-3 flow cytometry,,"150.40 µM, 48 h",,viable cells,97.2 ± 0.85%
CCCCN1CCCCC1C(=O)Nc1c(C)cccc1C (stereo not drawn),,mitochondrial swelling,BALB/cByJ female mouse liver mitochondria,"30 min, added: succinate + rotenone",relative to: CaCl2 maximal swelling,EC20,> 800 µM
O=C1Cc2cc(-c3csc(NCCc4cccs4)n3)cc3c2N1CCC3,Leishmania donovani,,intracellular amastigote,,,EC50,> 100 µM
Cn1c(-c2ccc(C(N)=O)cc2F)nnc1C(C)(C)Oc1c(F)cc(Cl)cc1F,,,"young non-Japanese healthy subjects, plasma","oral, 0.2 mg once daily, 3 mg loading day 1, mean, last dosing day",,Ctrough,0.552 ng/mL
LEQKAASCHNSYIVLAIENSFMTSFSK,,,"peptide, acetonitrile/water 50:50","200 µg/mL, 25 °C, 205-225 nm",relative to: native peptide,ellipticity,decreased
CS(=O)(=O)n1cc2c(n1)CN([C@H]1CO[C@H](c3cc(F)ccc3F)[C@@H](N)C1)C2,,,"healthy male human, plasma","oral, 1.5 mg, fasted, geometric mean",,AUC(0-24h),340 nM·h

# A few entries again:
Substance,tested on,assay,test system,setting,how to read,measurement,result
OC[C@H]1O[C@@](CO)(O[C@H]2O[C@H](CO)[C@@H](O)[C@H](O)[C@H]2O)[C@@H](O)[C@@H]1O,,"cytochrome c release, ELISA",BALB/cByJ female mouse liver mitochondria,30 min,relative to: alamethicin maximal release,EC20,> 800 µM
